Measurements pooled from the literature.
Lines come from different studies, so protocols differ. Values joined by “and” are separate records of one study, mostly repeats; a detail may differ. ± marks the error that the study gave.

SMILES	assay	test system	conditions	how to read	quantity	result
COc1cc2c(Oc3ccc4[nH]c(C)cc4c3F)ccnc2cc1OCC1(N)CC1	refers to: grade 3 weight loss	paediatric high-risk refractory sarcoma	whole group	–	incidence of adverse event	0%
CC(C)Nc1ccnc(Nc2cccc(-c3cccnc3)c2)n1	refers to: albumin	mouse, blood	intraperitoneal, 3 mg/kg	–	blood chemistry	3.3 g/dL
O=S(=O)(Nc1ccccc1)c1ccc(NC(=S)Nc2ccccc2)cc1	–	mouse, male, blood	oral, 5 mg/kg daily, 14 days	–	mean platelet volume	4.68 fL
O=C(Nc1ccccc1)C1CCN(C(=O)Oc2cccnc2)CC1	Bond-Lader VAS	healthy women	oral, 20 mg	reference: pre-dose baseline, direction not given	change in alertness score	3.9
CN1CCN(c2ccc(Nc3nccc(-c4cccc([N+](=O)[O-])c4)n3)cc2C(F)(F)F)CC1	–	Danio rerio embryos	5 µM, 5 d	–	toxicity	0%
COc1ccc2nc3cc(Cl)ccc3c(Nc3cc(CN4CCCC4)c(O)c(CN4CCCC4)c3)c2n1	–	mouse, blood	oral, 57 mg/kg, tolerability, mean	–	monocytes	4.64%
O=C1Nc2cc3[nH]nc(-c4ccncc4)c3cc2CN1Cc1ccccc1	CTCAE v4.03	advanced solid tumour patients	intravenous, 6.4 mg/kg	–	patients with macular oedema	11%
c1cc2ccc3cccc4ccc(c1)c2c34	–	fresh water	12 (unit not given), 20 °C, S30-1 sampler, 30 µm	–	log K(PDMS-water)	4.3 ± 0.05
CC1(C)[C@H](C(=O)OCc2cccc(Oc3ccccc3)c2)[C@@H]1C=C(Cl)Cl	–	pooled human liver microsomes	–	–	CLint	0.163 mL/min/mg protein
CC[C@H](C)[C@H](NC(=O)[C@H](Cc1ccccc1)NC(=O)[C@H](CCC(=O)O)NC(=O)[C@H](CCCNC(=N)N)NC(=O)[C@H](C)NC(=O)[C@H](C)NC(=O)[C@H](CCC(N)=O)NC(=O)[C@H](CCC(=O)O)NC(=O)[C@H](CCC(=O)O)NC(=O)[C@H](CC(C)C)NC(=O)[C@H](Cc1ccc(O)cc1)NC(=O)[C@H](CO)NC(=O)[C@H](CO)NC(=O)[C@@H](NC(=O)[C@H](CC(=O)O)NC(=O)[C@H](CO)NC(=O)[C@@H](NC(=O)[C@H](Cc1ccccc1)NC(=O)[C@@H](NC(=O)CNC(=O)[C@H](CCC(=O)O)NC(=O)[C@H](C)NC(=O)CCc1cnc[nH]1)[C@@H](C)O)[C@@H](C)O)C(C)C)C(=O)N[C@@H](C)C(=O)N[C@@H](Cc1c[nH]c2ccccc12)C(=O)N[C@@H](CC(C)C)C(=O)N[C@H](C(=O)N[C@@H](CCCNC(=N)N)C(=O)NCC(=O)N[C@@H](CCCNC(=N)N)C(=O)N[C@@H](CCCCNC(=O)COCCOCCNC(=O)COCCOCCNC(=O)CC[C@H](NC(=O)CCCCCCCCCCCCCCCCC(=O)O)C(=O)O)C(=O)NCC(=O)NCC(=O)N[C@@H](CO)C(=O)N[C@@H](CCCCNC(=O)[C@H](CCCCNc1c(NCCCCCN(O)C(=O)CCC(=O)NCCCCCN(O)C(=O)CCC(=O)NCCCCCN(O)C(C)=O)c(=O)c1=O)Nc1c(NCCCCCN(O)C(=O)CCC(=O)NCCCCCN(O)C(=O)CCC(=O)NCCCCCN(O)C(C)=O)c(=O)c1=O)C(=O)O)C(C)C [zirconium-89 labelled]	ex vivo gamma counting	Sprague-Dawley rat, male, colon	intravenous, 1 nmol, 24 h	–	tissue uptake	0.208 %ID/g and 0.216 %ID/g and 0.224 %ID/g and 0.188 %ID/g and 0.206 %ID/g
Clc1cc(Cl)c(-c2cc(Cl)c(Cl)cc2Cl)cc1Cl	–	polyethylene-water partitioning	PCB compilation	reference: maximum over minimum K	literature range factor	6
C[C@@H]1OC(=O)NN=C1c1ccc(-c2ccc(F)cc2)c(C(F)(F)F)c1	phase I trial, refers to: Pneumonitis all grades	human patients	20 mg loading then 1 mg daily	–	patients with adverse event	50%
Clc1ccc(Cl)c(-c2c(Cl)c(Cl)cc(Cl)c2Cl)c1	–	polyethylene-water partitioning	PCB compilation	reference: maximum over minimum K	literature range factor	1.1
NCCCC[C@@H]1NC(=O)[C@@H](Cc2c[nH]c3ccccc23)NC(=O)[C@H](c2ccccc2)NC(=O)[C@@H]2C[C@@H](OC(=O)NCCN)CN2C(=O)[C@H](Cc2ccccc2)NC(=O)[C@H](Cc2ccc(OCc3ccccc3)cc2)NC1=O	–	healthy volunteers, male	600 µg twice daily, 1.0 h, post hoc	–	placebo-corrected QTcF change	9.6 ms
CC(C)(c1ccccc1)c1cc(-n2nc3ccccc3n2)c(O)c(C(C)(C)c2ccccc2)c1	exposure assessment	human, age 21-60 years	spray sunscreen	–	mean daily dermal uptake	9.38 ng/kg body weight/day
CC(=O)c1c(C)c2cnc(Nc3ccc(C4CCN(CCS(C)(=O)=O)CC4)cn3)nc2n(C2CCCC2)c1=O	–	beagle dog, both sexes, fasted, blood	oral gavage, 15 mg/kg, acidified methylcellulose vehicle	–	half-life	6.64 h
COc1cc2c(cc1OC)CN(CCc1ccc(NC(=O)c3cccc4c(=O)c5cccc(OC)c5[nH]c34)cc1)CC2	–	CD-1 mouse, male, plasma	intraperitoneal, 30 mg/kg	–	elimination rate constant	1.03e-05 s⁻¹
C[C@]1(CO)Cc2ncn(-c3ccc(C#N)c(Cl)c3)c2C(=O)O1	–	Japanese subjects	3 mg single dose	–	drug-related orthostatic hypotension incidence	0%
CN1CC[C@@H](c2c(O)cc(O)c3c(=O)cc(-c4ccc(C(F)(F)F)cc4Cl)oc23)[C@@H]1CO	refers to: Anemia	relapsed B-cell malignancies	oral, 200 mg, grade 3-4, intermittent dosing	–	patients with adverse event	0%
C[C@@H](NC(=O)N1C(=O)[C@H](Cc2ccnc(N)c2)[C@H]1C(=O)O)C1CCCCC1	–	healthy adult Chinese volunteers	continuous intravenous infusion, 1.0 mg/kg/h, 5-day infusion, CTCAE 5.0 grading	–	incidence of serious AEs	0%

SMILES	assay	test system	conditions	how to read	quantity	result
COc1ncnn2ccc(-c3cnc4nc(C)n(Cc5nnc([C@@H](C)F)o5)c4c3)c12	–	human patients	oral, dose not given	–	incidence of any adverse events (all grades)	100%
CO[C@H]1C[C@@H]2CC[C@@H](C)[C@@](O)(O2)C(=O)C(=O)N2CCCC[C@H]2C(=O)O[C@H]([C@H](C)C[C@@H]2CC[C@@H](OC(=O)NCCOCCOCCOCCOCCOCCOCCOCCOCCC(=O)N3CCc4cc(Cn5nc(-c6ccc7oc(N)nc7c6)c6c(N)ncnc65)ccc4C3)[C@H](OC)C2)C[C@@H](O)[C@H](C)/C=C(\C)[C@@H](O)[C@@H](OC)C(=O)[C@H](C)C[C@H](C)/C=C/C=C/C=C/1C	phase 1 dose escalation	advanced solid tumour patients	intravenous, 10 mg weekly, any grade	–	any SAE incidence	25%
CC(C)[C@@H]1NC(=O)[C@@H]2CSSC[C@@H]3NC(=O)[C@H]([C@@H](C)O)NC(=O)[C@@H]4CSSC[C@H](NC(=O)[C@H](C(C)C)NC(=O)[C@@H]5CCCN5C(=O)[C@H](CCCCN)NC(=O)CNC(=O)[C@H](CC(N)=O)NC(=O)[C@H](CCCNC(=N)N)NC(=O)[C@H]([C@@H](C)O)NC(=O)[C@H](CSSC[C@H](NC(=O)[C@H]([C@@H](C)O)NC(=O)CNC(=O)CNC1=O)C(=O)N[C@@H](CC(N)=O)C(=O)N[C@@H]([C@@H](C)O)C(=O)N1CCC[C@H]1C(=O)NCC(=O)N4)NC(=O)[C@H](C(C)C)NC(=O)[C@@H]1CCCN1C(=O)[C@H](Cc1c[nH]c4ccccc14)NC(=O)[C@H](CO)NC3=O)C(=O)NCC(=O)N[C@@H](CCC(=O)O)C(=O)N[C@@H]([C@@H](C)O)C(=O)N2	HPLC	ammonium bicarbonate 0.1 M	180 µM, 7 days, pH 9.0, 37 °C, deamidation stability	–	remaining peptide	68.7 ± 3%
Clc1cc(Cl)c(-c2c(Cl)c(Cl)cc(Cl)c2Cl)cc1Cl	–	fresh water	20 °C, SSP sampler, 100 µm	–	log K(PDMS-water)	6.65 ± 0.07
COc1ncccc1-c1cnn2ccc(N3CCN(C(=O)OC(C)C)CC3)nc12	–	mouse, SNL model, brain	oral, 10 mg/kg, 120 min	–	drug concentration	11 µM
O=C(Nc1ccccc1)C1CCN(C(=O)Oc2cccnc2)CC1	refers to: dry mouth	healthy female humans	concentration not given, safety set, all doses pooled	–	TEAE incidence	21%
O[C@H]1CCCN[C@@H]1CCCn1cnc2c(Cl)c(Cl)ccc21	–	healthy CYP2D6 extensive/ultrarapid metabolizers, plasma	oral, dose not given, added: pirfenidone	–	AUClast geometric LS mean	896 ng·h/mL
CCN1CCN(Cc2ccc(Nc3ncc(F)c(-c4cc(F)c5nc6n(c5c4)[C@H](C)CCC6)n3)nc2)CC1	–	advanced solid tumour patients	dose not given, Phase Ia monotherapy	–	Hyponatremia incidence, any grade	20.8%
C[C@H]1COCCN1c1nc(NCc2cccnc2C(F)(F)F)c2cccnc2n1	–	conscious rat	intravenous, 10 mg/kg	reference: control	BP change	-15.6%
COc1ccnc(C(=O)N[C@H]2COC(=O)[C@H](Cc3ccccc3)[C@@H](OC(=O)C(C)C)[C@H](C)OC2=O)c1OCOC(=O)C(C)C	soil adsorption	soil	pH 6.9, organic carbon 0.8 %	–	KFoc	58700 mL/g
Cn1ncc(-c2nc(N[C@H]3CC[C@H](N)CC3)ncc2Cl)c1CC1CC1	refers to: pneumonia grade 3 or higher	human patients phase I	dose not given	–	adverse event incidence	17%
CCOc1cc(Oc2ccc(C(F)(F)F)cc2Cl)ccc1[N+](=O)[O-]	–	rat male	15 mg/kg, 8 days	–	final body weight	144 ± 8.31 g
Clc1ccc(Cl)c(-c2cc(Cl)ccc2Cl)c1	–	Sprague Dawley rat, thymus	intraperitoneal, 1 mg/kg	–	relative organ weight	0.0027 g/g body weight
NC(=O)[C@H]1CCN(c2ncnc(N)c2F)C[C@@H]1N1CCC[C@@H](Nc2cc(Cl)cc(C(F)(F)F)c2)C1=O	–	B-cell malignancy patients	oral, 410 mg twice daily, dose	–	grade ≥3 thrombocytopenia	0%
CC(C)C[C@@H]1NC(=O)CNC(=O)[C@H](CC(N)=O)NC(=O)[C@H](CCCNC(=N)N)NC(=O)[C@H]([C@@H](C)O)NC(=O)[C@@H]2CSSC[C@@H]3NC(=O)[C@H]([C@@H](C)O)NC(=O)CNC(=O)CNC(=O)[C@H](CCCCN)NC(=O)[C@@H]4CSSC[C@H](NC(=O)[C@H]([C@@H](C)O)NC(=O)[C@H](CSSC[C@H](NC(=O)[C@H](C(C)C)NC(=O)[C@@H]5CCCN5C1=O)C(=O)NCC(=O)N[C@@H](CCC(=O)O)C(=O)N[C@@H]([C@@H](C)O)C(=O)N4)NC(=O)CNC(=O)[C@@H]1CCCN1C(=O)[C@H]([C@@H](C)O)NC(=O)[C@H](CC(N)=O)NC3=O)C(=O)N[C@@H](CO)C(=O)N[C@@H](Cc1c[nH]c3ccccc13)C(=O)N1CCC[C@H]1C(=O)N[C@@H](C(C)C)C(=O)N2	HPLC	ammonium bicarbonate	180 µM, 14 days, pH 9.0, 25 °C, deamidation stability	–	remaining peptide	90.5 ± 1.8%
O=C(O)CCCOc1ccc(F)cc1-c1cc(-c2ccccc2C(F)(F)F)n(-c2ccccc2)n1	–	male Crl:CD(SD) rats, thymus	intravenous, 25 µg/kg, 14 d	–	organ weight	0.47 ± 0.11 g
O=[N+]([O-])c1ccc2c(c1)S(=O)(=O)C=C2	flow cytometry	male C57BL/6 mice, spleen	i.p., 20 mg/kg, 8 days	reference: splenocytes	CD45+ cells	81.7%
COc1ccc2c(c[n+](C)c3c4cc5c(cc4ccc23)OCO5)c1OC	LC-MS/MS	rat, plasma	–	–	alpha half-life	3.27 h
CN[C@H]1CC[C@@H](c2ccc(Cl)c(Cl)c2)c2ccccc21	–	CD-1 mouse, male, lung	intraperitoneal, 30 mg/kg	–	Tmax	0.25 h
CC[C@H](C)[C@@H]1NC(=O)[C@@H]2CSSC[C@H](NC(=O)[C@H](CCCNC(=N)N)NC(=O)[C@@H]3CSSC[C@H](NC1=O)C(=O)N[C@@H]([C@@H](C)O)C(=O)N[C@@H](CCCNC(=N)N)C(=O)NCC(=O)N[C@@H](Cc1ccccc1)C(=O)N3)C(=O)N[C@@H](CC(C)C)C(=O)N[C@H]1CSSC[C@H](NC(=O)[C@H](C(C)C)NC(=O)CNC(=O)[C@H](CCCNC(=N)N)NC(=O)[C@H](CCCNC(=N)N)NC1=O)C(=O)N[C@@H](CCCNC(=N)N)C(=O)N2	–	Sprague-Dawley rat, male, lung	10 mg/kg, perivascular, peribronchiolar	direction not given	lung eosinophilic infiltration score	1 to 3

For quick reference, copied from above:
SMILES	assay	test system	conditions	how to read	quantity	result
COc1ncnn2ccc(-c3cnc4nc(C)n(Cc5nnc([C@@H](C)F)o5)c4c3)c12	–	human patients	oral, dose not given	–	incidence of any adverse events (all grades)	100%
Clc1cc(Cl)c(-c2c(Cl)c(Cl)cc(Cl)c2Cl)cc1Cl	–	fresh water	20 °C, SSP sampler, 100 µm	–	log K(PDMS-water)	6.65 ± 0.07
CC(C)C[C@@H]1NC(=O)CNC(=O)[C@H](CC(N)=O)NC(=O)[C@H](CCCNC(=N)N)NC(=O)[C@H]([C@@H](C)O)NC(=O)[C@@H]2CSSC[C@@H]3NC(=O)[C@H]([C@@H](C)O)NC(=O)CNC(=O)CNC(=O)[C@H](CCCCN)NC(=O)[C@@H]4CSSC[C@H](NC(=O)[C@H]([C@@H](C)O)NC(=O)[C@H](CSSC[C@H](NC(=O)[C@H](C(C)C)NC(=O)[C@@H]5CCCN5C1=O)C(=O)NCC(=O)N[C@@H](CCC(=O)O)C(=O)N[C@@H]([C@@H](C)O)C(=O)N4)NC(=O)CNC(=O)[C@@H]1CCCN1C(=O)[C@H]([C@@H](C)O)NC(=O)[C@H](CC(N)=O)NC3=O)C(=O)N[C@@H](CO)C(=O)N[C@@H](Cc1c[nH]c3ccccc13)C(=O)N1CCC[C@H]1C(=O)N[C@@H](C(C)C)C(=O)N2	HPLC	ammonium bicarbonate	180 µM, 14 days, pH 9.0, 25 °C, deamidation stability	–	remaining peptide	90.5 ± 1.8%
